Experimental data collected from several papers.
Numbers after ± are the reported error.

Clc1cc2c(cc1Cl)Oc1c(Cl)c(Cl)c(Cl)c(Cl)c1O2  mass balance (Caco-2 monolayer; GC-HRMS; gut-on-a-chip; 0.2 ng/mL, 24 h, 1% DMSO): 98 ± 8%
CCCCn1cc(C(=O)O)c(=O)c2cc(F)c(Nc3ccccc3Cl)c(N)c21  IC50 (MCF7; cell growth or viability, SRB): 58 µM
CC[C@H](C)[C@H](NC(=O)[C@H](CCCNC(=N)N)NC(=O)[C@H](Cc1ccc(O)cc1)NC(=O)[C@H](Cc1ccc(O)cc1)NC(=O)[C@@H](N)CCCNC(=N)N)C(=O)N[C@@H](CCCCN)C(N)=O  Papp (brain-like endothelial cells with pericytes; human in vitro BBB model; 200 µM, 2 h, 37 °C): 2.7 ×10⁻⁶ cm/s
CCCCn1cc(C(=O)O)c(=O)c2cc(F)c(Nc3cccc(Cl)c3)c(N)c21  IC50 (SW480; cell growth or viability, SRB): 70.3 µM
CC(C)C[C@H](NC(=O)[C@H](CCCNC(=N)N)NC(=O)[C@H](Cc1ccccc1)NC(=O)[C@H](Cc1ccccc1)NC(=O)[C@@H](N)[C@@H](C)O)C(=O)N[C@@H](Cc1ccccc1)C(=O)N[C@@H](CC(N)=O)C(=O)N[C@@H](CCCNC(=N)N)C(=O)N[C@@H](C)C(=O)N[C@@H](CCCCN)C(=O)N[C@@H](CCCNC(=N)N)C(=O)N[C@@H](Cc1c[nH]cn1)C(=O)N[C@@H](Cc1c[nH]cn1)C(=O)NCC(=O)N[C@@H](Cc1ccc(O)cc1)C(=O)N[C@@H](CCCCN)C(=O)N[C@@H](CCCNC(=N)N)C(=O)N[C@@H](CCCCN)C(=O)N[C@@H](Cc1ccccc1)C(=O)N[C@@H](Cc1c[nH]cn1)C(=O)O  cell viability (MC3T3-E1; CCK-8; up to 2 × MBC, 24 h; relative to: untreated): no effect
CSCC[C@H](NC(=O)[C@H](CO)NC(=O)[C@H](CCCNC(=N)N)NC(=O)[C@H](Cc1ccccc1)NC(=O)[C@H](CCCNC(=N)N)NC(=O)[C@H](CCCCN)NC(C)=O)C(=O)N[C@@H](CCC(N)=O)C(=O)N[C@@H](Cc1ccc(O)cc1)C(=O)N[C@@H](CO)C(=O)N[C@@H](C)B(O)O  cell cycle distribution (HEK-293T; flow cytometry; concentration not given, 24 h): no effect
CCCCn1cc(C(=O)O)c(=O)c2cc(F)c3c(nnn3-c3ccccc3Cl)c21  IC50 (SW480; cell growth, SRB; 72 h): 278 ± 11.6 µg/mL
CC(C)=C1CC[C@]23CO[C@H](C2)[C@@](O)(C(=O)O)CC[C@@H]13  cytotoxicity (SK-MEL-1; CellTiter-Glo; up to 500 µM, 72 h): not toxic
CC[C@@H](C)[C@H]1NC(=O)[C@H]([C@@H](C)CC)NC(=O)[C@@H](CCCN)NC(=O)[C@@H](NC(=O)[C@@H](NC(=O)[C@@H](CCC(=O)O)NC(=O)[C@H](CC(C)C)NC(=O)[C@@H]2CSC([C@@H](N)[C@@H](C)CC)=N2)[C@@H](C)CC)CCCCNC(=O)[C@H](CC(N)=O)NC(=O)[C@@H](CC(=O)O)NC(=O)[C@H](Cc2c[nH]cn2)NC1=O  hemolysis (sheep red blood cells; 128 µg/mL, 20 h, 37 °C; relative to: Triton X-100 0.1%): 0%
Clc1c(Cl)c(Cl)c2c(c1Cl)Oc1c(Cl)c(Cl)c(Cl)c(Cl)c1O2  cellular fraction (Caco-2 monolayer; static Transwell; 0.2 ng/mL, 24 h, 1% DMSO; relative to: exposure): 51.8%
CSCC[C@H](NC(=O)CCCCCNC(=S)Nc1ccc2c(c1)C(=O)OC21c2ccc(O)cc2Oc2cc(O)ccc21)C(=O)N[C@@H](C)C(=O)N[C@@H](CC(N)=O)C(=O)N[C@@H](CC(C)C)C(=O)NCC(=O)N[C@@H](Cc1ccc(O)cc1)C(=O)N[C@@H](Cc1c[nH]c2ccccc12)C(=O)N[C@@H](CC(C)C)C(=O)N[C@@H](CC(C)C)C(=O)N[C@@H](C)C(=O)N[C@@H](CC(C)C)C(=O)N[C@@H](Cc1ccccc1)C(=O)N[C@H](C(=O)N[C@H](C(=O)N[C@@H](Cc1ccc(O)cc1)C(=O)N[C@@H](Cc1c[nH]c2ccccc12)C(=O)N[C@H](C(=O)N[C@@H](CC(=O)O)C(=O)N[C@@H](CC(C)C)C(=O)NCC(=O)N[C@@H](CC(C)C)C(=O)N[C@H](C(=O)N[C@@H](CCCCN)C(=O)N[C@@H](CCCCN)C(=O)N[C@@H](CCCNC(=N)N)C(=O)N1CCC[C@H]1C(=O)N[C@@H](CCCCN)C(=O)N1CCC[C@H]1C(=O)O)C(C)C)[C@@H](C)O)[C@@H](C)O)C(C)C  peptide internalization (human B cells; 60 min): increased
Cc1c(Br)cnc2c1NC(=O)c1cccnc1N2C1CC1  mRNA fold change (pooled primary human hepatocytes; inducer, qPCR, measured: CYP3A4; 25 µM, 72 h; relative to: DMSO): 6.5 fold
CCCCn1cc(C(=O)O)c(=O)c2cc(F)c3c(nnn3-c3cccc(Cl)c3)c21  IC50 (SW480; cell growth, SRB; 72 h): 63 ± 7.47 µg/mL
O=C(CCc1ccccc1)NOC(=O)OCc1ccccc1  viability (L929; MTT; 25 µM, 24 h): > 98%
Cc1cc(O)cc(C)c1C[C@H](NC(=O)[C@H](N)CCCNC(=N)N)C(=O)N[C@@H](CCCN)C(=O)N[C@@H](Cc1ccccc1)C(N)=O  viability (HeLa 705; WST-1; up to 100 µM, 24 h; relative to: untreated): no effect
O=C1c2ccccc2C2(c3ccc(O)cc3Oc3cc(O)ccc32)N1CCS(=O)(=O)O  viability (human retinal microvascular endothelial cells; MTT; up to 200 µmol/L, 24 h): not toxic
CN[C@](C)(C[18F])C(=O)O  tracer uptake (MDA-MB-468 tumour model; host not given, heart; 15 min, tumour-bearing): 3.3 %ID/g
CC[C@H](C)[C@H](NC(=O)[C@H](CCCCN)NC(=O)[C@H](C)NC(=O)[C@H](CCCNC(=N)N)NC(=O)[C@H](CCCCN)NC(=O)[C@H](CC(N)=O)NC(=O)[C@H](CCC(N)=O)NC(=O)[C@H](Cc1ccccc1)NC(=O)[C@H](Cc1c[nH]c2ccccc12)NC(=O)[C@@H](NC(=O)[C@H](CCCCN)NC(=O)[C@@H](NC(=O)[C@H](CCC(N)=O)NC(=O)[C@H](CO)NC(=O)CNC(=O)CNC(=O)CNC(=O)CNC(=O)CCCC[C@@H]1SC[C@@H]2NC(=O)N[C@@H]21)[C@@H](C)CC)[C@@H](C)CC)C(=O)N[C@@H](CCCCN)C(=O)N[C@@H](CCCCN)C(N)=O  internalization ratio (CHO pgsA-745 GAG-deficient; MALDI-TOF MS; 7 µM, 1 h, 37 °C; relative to: CHO-K1 and SK-OV-3 over pgsA-745): 3
C#CC[C@H](NC(=O)CNC(=O)[C@H](CO)NC(=O)[C@@H]1CCCCNC(=O)CCCC(=O)N[C@@H](CCSC)C(=O)N[C@@H](Cc2c[nH]c3ccccc23)C(=O)N2CCC[C@H]2C(=O)N[C@@H](Cc2c[nH]cn2)C(=O)N[C@@H](CCCNC(=N)N)C(=O)N[C@@H](C(C)C)C(=O)N[C@@H]([C@@H](C)O)C(=O)N[C@@H](C)C(=O)N(C)[C@@H](C)C(=O)N1)C(=O)O  cytosolic access ratio (HeLa HaloTag-GFP-Mito; chloroalkane penetration; 4 h; relative to: compound over linear variant): ~7 fold
O=C(CN1CCN(c2cc3c(cc2F)c(=O)c(C(=O)O)cn3C2CC2)CC1)Nc1ccc(Cl)cc1  viability (Hec50co LOF p53; MTS; 10 µM, 72 h): 99.6 ± 0.4%
CC(C)C[C@@H]1NC(=O)[C@H](CCCN)NC(=O)[C@H](C(C)C)NC(=O)[C@@H]2CCCN2C(=O)[C@@H](Cc2ccccc2)NC(=O)[C@H](CC(C)C)NC(=O)[C@H](CCCN)NC(=O)[C@H](C(C)C)NC(=O)[C@@H]2CCCN2C(=O)[C@@H](Cc2ccccc2)NC1=O  hemolysis (rat erythrocytes; concentration not given, 30 min, pH 7.4, 37 °C, with: Escherichia coli K-235 LPS, 1:5 w/w): no inhibition
Clc1cc2oc3c(Cl)c(Cl)c(Cl)cc3c2cc1Cl  mass balance (Caco-2 monolayer; GC-HRMS; static Transwell; 0.2 ng/mL, 24 h, 1% DMSO, congener mixture): 82 ± 2%
C[C@H](NC(=O)[C@H](CCCNC(=N)N)NC(=O)[C@H](CCC(=O)O)NC(=O)[C@H](CCCNC(=N)N)NC(=O)[C@H](CCCNC(=N)N)NC(=O)[C@@H](NC(=O)[C@H](CCCNC(=N)N)NC(=O)[C@H](C)NC(=O)[C@H](CCCNC(=N)N)NC(=O)[C@H](CCC(=O)O)NC(=O)[C@@H](N)CCCNC(=N)N)[C@@H](C)O)C(=O)N[C@@H](CCCNC(=N)N)C(=O)N[C@H](C(=O)N[C@@H](CCCNC(=N)N)C(=O)N[C@@H](CCC(=O)O)C(=O)N[C@@H](CCCNC(=N)N)C(=O)N[C@@H](C)C(=O)N[C@@H](CCCNC(=N)N)C(=O)N[C@H](C(=O)N[C@@H](CCCNC(=N)N)C(=O)O)[C@@H](C)O)[C@@H](C)O  cytotoxicity (HUVEC; tube formation; concentration not given): not toxic
C#CC[C@H](NC(=O)CNC(=O)[C@H](CO)NC(=O)[C@H](CCCCN)NC(=O)[C@H](C)N(C)C(=O)[C@H](C)NC(=O)[C@@H](NC(=O)[C@@H](NC(=O)[C@H](CCCNC(=N)N)NC(=O)[C@H](Cc1c[nH]cn1)NC(=O)[C@@H]1CCCN1C(=O)[C@H](Cc1c[nH]c2ccccc12)NC(=O)[C@@H](N)CCSC)C(C)C)[C@@H](C)O)C(=O)O  CP50 (HeLa HaloTag-GFP-Mito; cell penetration, chloroalkane penetration; 4 h): 8.82 ± 0.81 µM
CCCCn1cc(C(=O)O)c(=O)c2cc(F)c(Nc3cccc(Cl)c3)c([N+](=O)[O-])c21  IC50 (HT-29; cell growth or viability, SRB): 58.8 µM
Clc1c(Cl)c(Cl)c2c(oc3c(Cl)c(Cl)c(Cl)c(Cl)c32)c1Cl  mass balance (Caco-2 monolayer; GC-HRMS; static Transwell; 0.2 ng/mL, 24 h, 1% DMSO, congener mixture): 79 ± 2%
CCCCn1cc(C(=O)O)c(=O)c2cc(F)c(Nc3ccccc3Cl)c([N+](=O)[O-])c21  IC50 (HT-29; cell growth or viability, SRB): 191 µM
CCCCCCCCCCCC(=O)Nc1ccccc1SSc1ccccc1NC(=O)CCCCCCCCCCC  cytotoxicity (HaCaT; MTT; up to 10 mg/mL): not toxic

Some of these lines once more:
C#CC[C@H](NC(=O)CNC(=O)[C@H](CO)NC(=O)[C@@H]1CCCCNC(=O)CCCC(=O)N[C@@H](CCSC)C(=O)N[C@@H](Cc2c[nH]c3ccccc23)C(=O)N2CCC[C@H]2C(=O)N[C@@H](Cc2c[nH]cn2)C(=O)N[C@@H](CCCNC(=N)N)C(=O)N[C@@H](C(C)C)C(=O)N[C@@H]([C@@H](C)O)C(=O)N[C@@H](C)C(=O)N(C)[C@@H](C)C(=O)N1)C(=O)O  cytosolic access ratio (HeLa HaloTag-GFP-Mito; chloroalkane penetration; 4 h; relative to: compound over linear variant): ~7 fold
O=C(CN1CCN(c2cc3c(cc2F)c(=O)c(C(=O)O)cn3C2CC2)CC1)Nc1ccc(Cl)cc1  viability (Hec50co LOF p53; MTS; 10 µM, 72 h): 99.6 ± 0.4%
CC(C)C[C@@H]1NC(=O)[C@H](CCCN)NC(=O)[C@H](C(C)C)NC(=O)[C@@H]2CCCN2C(=O)[C@@H](Cc2ccccc2)NC(=O)[C@H](CC(C)C)NC(=O)[C@H](CCCN)NC(=O)[C@H](C(C)C)NC(=O)[C@@H]2CCCN2C(=O)[C@@H](Cc2ccccc2)NC1=O  hemolysis (rat erythrocytes; concentration not given, 30 min, pH 7.4, 37 °C, with: Escherichia coli K-235 LPS, 1:5 w/w): no inhibition
